Results pooled from the literature.
Protocols differ between the studies behind these lines. ± gives the spread as reported.

With `COc1cc(OC)c(/C=C/S(=O)(=O)Cc2ccc(OC)c(NCC(=O)O)c2)c(OC)c1` the AUC(0-inf) was 4930 ± 4060 ng·h/mL (cancer patients, phase I, plasma; oral, 280 mg twice daily, day 1 cycle 1).
With `CC(C(=O)O)c1ccc(-c2ccccc2)c(F)c1` (stereo not drawn) the AUC(0-inf) was 59300 ± 18700 ng·h/mL (healthy volunteers, plasma; oral, 100 mg, arithmetic mean, together with: control beverage 250 mL).
The AUC(0-inf) of `Cc1nc2cccc(N)c2c(=O)n1C1CCC(=O)NC1=O` (stereo not drawn) is reported as 1100 ng·h/mL (healthy adults, plasma; oral, 3 mg, geometric mean, together with: fluvoxamine 50 mg twice daily).
For `CCc1cc2c(cc1N1CCC(N3CCOCC3)CC1)C(C)(C)c1[nH]c3cc(C#N)ccc3c1C2=O`, the AUC(0-inf) was 4260 ng·h/mL (severe hepatic impairment, plasma, total; oral, 300 mg single, fed).
With `C[C@@H]1CCO[C@H]2Cn3cc(C(=O)NCc4ccc(F)cc4F)c(=O)c(O)c3C(=O)N12` the AUC(0-inf) was 14100 to 60900 ng·h/mL (healthy subjects matched to renal impairment, plasma; oral, 50 mg, single dose).
For `Cc1ccc([C@@H]2O[C@H](CO)[C@@H](O)[C@H](O)[C@H]2O)cc1Cc1ccc(-c2ccc(F)cc2)s1`, the AUC(0-inf) was 14800 ng·h/mL (Japanese type 2 diabetes patients, plasma; oral, 200 mg single, normal or mild renal impairment).
With `Nc1cccc2c1C(=O)N(C1CCC(=O)NC1=O)C2=O` (stereo not drawn) the AUC(0-inf) was 463 ng·h/mL (healthy male smokers, plasma; oral, 4 mg, geometric mean, ANOVA).
For `CC(C)(Sc1ccncc1-c1ccc(C#N)c2ccccc12)C(=O)O`, the AUC(0-inf) was 402 ng·h/mL (male, plasma; oral, 15 mg, moderate renal impairment, fasted).
`NC(=O)c1cnc2[nH]ccc2c1N[C@@H]1[C@@H]2CC3C[C@H]1C[C@@](O)(C3)C2` gave an AUC(0-inf) of 529 ng·h/mL (healthy Caucasian men, plasma; oral, 60 mg, single dose fasted).
With `CC#CC(=O)N1CCC[C@H]1c1nc(-c2ccc(C(=O)Nc3ccccn3)cc2)c2c(N)nccn12` the AUC(0-inf) was 1210 ng·h/mL (Japanese patients, plasma; oral, 100 mg twice daily, day 8, fasting, multiple dose, geometric mean).
`COc1cccc(N2CCN(C3=Nc4c(F)cccc4[C@H](CC(=O)O)N3c3cc(C(F)(F)F)ccc3OC)CC2)c1` has an AUC(0-inf) of 250000 ± 59200 ng·h/mL (UHPLC-MS/MS; healthy women, plasma; intravenous infusion, 960 mg single dose, 60 min infusion, HPβCD formulation).
`CC(C)=CCC[C@](C)(O[C@@H]1O[C@H](CO)[C@@H](O)[C@H](O)[C@H]1O)[C@H]1CC[C@]2(C)[C@@H]1[C@H](O)C[C@@H]1[C@@]3(C)CC[C@H](O[C@@H]4O[C@H](CO)[C@@H](O)[C@H](O)[C@H]4O)C(C)(C)[C@@H]3CC[C@]12C` has an AUC(0-inf) of 33 ± 48.6 ng·h/mL (LC-MS/MS; healthy male volunteers, serum; oral, 3 g fermented red ginseng).
`CC(C)(Sc1ccncc1-c1ccc(C#N)c2ccccc12)C(=O)O` has an AUC(0-inf) of 73.2 ng·h/mL (healthy Japanese male subjects, plasma; oral, 5 mg single dose, day 6, fed, geometric mean).
`O=C(NC[C@H](O)CO)c1ccncc1Nc1ccc(I)cc1F` gave an AUC(0-inf) of 1340 ng·h/mL (patients, plasma; oral, 60 mg single dose, day 8, median, alone).
`CC(C)=CCC[C@](C)(O[C@@H]1O[C@H](CO)[C@@H](O)[C@H](O)[C@H]1O)[C@H]1CC[C@]2(C)[C@@H]1[C@H](O)C[C@@H]1[C@@]3(C)CC[C@H](O[C@@H]4O[C@H](CO)[C@@H](O)[C@H](O)[C@H]4O[C@@H]4O[C@H](CO)[C@@H](O)[C@H](O)[C@H]4O)C(C)(C)[C@@H]3CC[C@]12C` has an AUC(0-inf) of 8.2 ± 11.9 ng·h/mL (LC-MS/MS; healthy volunteers, serum; oral, 3 g red ginseng).
For `CCOc1ccc(Cc2cc([C@@H]3S[C@H](CO)[C@@H](O)[C@H](O)[C@H]3O)c(OC)cc2C)cc1`, the AUC(0-inf) was 2010 ± 508 ng·h/mL (Japanese type 2 diabetes patients, plasma; oral, 5 mg single dose, eGFR ≥90 mL/min/1.73 m^2).
`COc1ccc2c3c1O[C@H]1C[C@@H](OC(=O)c4ccccc4)C=C[C@@]31CCN(C)C2` gave an AUC(0-inf) of 69.1 ng·h/mL (healthy elderly men, plasma; intranasal, 22 mg, single dose).
`CNC(=O)c1ccc(-c2cnc3ncc(Cc4ccc5ncccc5c4)n3n2)cc1F` gave an AUC(0-inf) of 7720 ng·h/mL (severe hepatic impairment; oral, 200 mg, geometric mean).
`Cc1nc(-c2ccc(OCC(C)C)c(C#N)c2)sc1C(=O)O` has an AUC(0-inf) of 2980 ± 761 ng·h/mL (healthy Chinese adult volunteers, plasma; oral, 20 mg single dose, fed).
With `CN1C(=O)[C@@H](NC(=O)c2nnc(Cc3ccccc3)[nH]2)COc2ccccc21` the AUC(0-inf) was 6800 ng·h/mL (healthy men, plasma; oral, 120 mg twice daily, day 1, geometric mean).
`CCC[C@H](N[C@@H](C)C(=O)N1[C@H](C(=O)O)C[C@@H]2CCCC[C@@H]21)C(=O)OCC` gave an AUC(0-inf) of 52 ± 12.9 ng·h/mL (healthy Chinese volunteers, plasma; oral, 4 mg, fasting, together with: indapamide 1.25 mg).
With `C[C@H]1Oc2cc(cnc2N)-c2c(nn(C)c2C#N)CN(C)C(=O)c2ccc(F)cc21` the AUC(0-inf) was 9140 ng·h/mL (healthy adults; oral solution, 100 mg single dose, adjusted geometric mean).
The AUC(0-inf) of `CC1Cc2ccccc2N1NC(=O)c1ccc(Cl)c(S(N)(=O)=O)c1` (stereo not drawn) is reported as 289 ± 84.7 ng·h/mL (healthy Chinese volunteers, plasma; oral, 1.25 mg, fasting, together with: perindopril tert-butylamine 4 mg).
With `O=C(C1CCCCC1)N1CC(=O)N2CCc3ccccc3[C@H]2C1` the AUC(0-inf) was 5670 ng·h/mL (healthy men, plasma; oral, 40 mg/kg racemic praziquantel, geometric mean, without efavirenz).

A few entries again:
`CC(C)=CCC[C@](C)(O[C@@H]1O[C@H](CO)[C@@H](O)[C@H](O)[C@H]1O)[C@H]1CC[C@]2(C)[C@@H]1[C@H](O)C[C@@H]1[C@@]3(C)CC[C@H](O[C@@H]4O[C@H](CO)[C@@H](O)[C@H](O)[C@H]4O[C@@H]4O[C@H](CO)[C@@H](O)[C@H](O)[C@H]4O)C(C)(C)[C@@H]3CC[C@]12C` has an AUC(0-inf) of 8.2 ± 11.9 ng·h/mL (LC-MS/MS; healthy volunteers, serum; oral, 3 g red ginseng).
For `CCOc1ccc(Cc2cc([C@@H]3S[C@H](CO)[C@@H](O)[C@H](O)[C@H]3O)c(OC)cc2C)cc1`, the AUC(0-inf) was 2010 ± 508 ng·h/mL (Japanese type 2 diabetes patients, plasma; oral, 5 mg single dose, eGFR ≥90 mL/min/1.73 m^2).
`COc1ccc2c3c1O[C@H]1C[C@@H](OC(=O)c4ccccc4)C=C[C@@]31CCN(C)C2` gave an AUC(0-inf) of 69.1 ng·h/mL (healthy elderly men, plasma; intranasal, 22 mg, single dose).
